Measured values from different studies.
Protocols differ between the studies behind these lines. Numbers after ± are the reported error.

Molecule | test | system | setting | scale | endpoint | result
COc1ccc2c(c1)c(CC(=O)O)c(C)n2C(=O)c1ccc(Cl)cc1 | multiplex bead immunoassay, item: IP-10 | CD-1 mice, serum | ip, 20 mg/kg, three-injection regimen, with: LPS 3 mg/kg | – | cytokine level | 492 ± 135 pg/mL
COc1cc(OC)c(OC)cc1/C=C(\C(=O)c1cc(C)[nH]c(=O)c1C(=O)N1CCCCC1)c1cc(OC)c(OC)cc1OC | cell proliferation, MTT | 35404 melanoma brain metastasis, human patient-derived | 72 h, tested up to 10 µM | – | IC50 | > 10 µM
Cn1cnc2c(F)c(Nc3ccc(Br)cc3Cl)c(C(=O)NOCCO)cc21 | volumetric MRI | human | 30 mg | baseline: best response | tumour volume increase | 44%
Cc1cc2cc3ccccc3cc2c2ccccc12 | adrenal haemorrhage prevention | rat | oral, with: 7,12-DMBA 5 mg i.v. | – | minimal protective dose | 0.5 mg
Cc1ccc(S(=O)(=O)NC(=O)NN2CC3CCCC3C2)cc1 (stereo not shown) | – | mice with STZ-induced diabetes | oral, 25 mg/kg, 216 h, day 9 | – | blood glucose | 165 ± 4.1 mg/dL
Cc1cc(Nc2ncc(Cl)c(Nc3ccccc3S(=O)(=O)C(C)C)n2)c(OC(C)C)cc1C1CCNCC1 | immunohistochemistry | human, metastatic tissue | concentration not given | baseline: archival tissue | pH3 and cleaved caspase-3 | no effect
COc1ccc(-c2c(Nc3ccccn3)[nH]c3c(C4=CCCCC4)c(-c4ccccc4)nn3c2=O)cc1 | immunohistochemistry H-score, item: SDMA | human, tumour biopsy | concentration not given | baseline: baseline biopsy | fold increase | ~2 fold
Cc1c2ccccc2cc2ccc3ccccc3c12 | adrenal haemorrhage prevention | rat | oral, with: 7,12-DMBA 5 mg i.v. | – | minimal protective dose | 1 mg
Cc1noc(NS(=O)(=O)c2ccc(N=NN(O)c3ccccc3)cc2)c1C | paw oedema | rat, carrageenan oedema | oral, 100 mg/kg, 2 h after carrageenan | baseline: vehicle | inhibition | 39.7%
Cc1c(C)c2c(c(C)c1O)CCC(C)(C(=O)NN=C1C(=O)Nc3ccc(Cl)cc31)O2 (stereo not shown) | seizure protection | male CF-1 mice | intraperitoneal, 0.5 h, with: pentylenetetrazole 60 mg/kg subcutaneous | – | minimal effective dose | 100 mg/kg
O=C1CSC(NN=C2c3ccccc3-c3nc4cc(F)ccc4nc32)=N1 | – | mice with STZ-induced diabetes | oral, 25 mg/kg, 144 h, day 6 | – | blood glucose | 543 ± 17.6 mg/dL
Nc1ccc2ccc3c4ccccc4ccc3c2c1 | adrenal haemorrhage prevention | rat | oral, with: 7,12-DMBA 5 mg i.v. | – | minimal protective dose | 0.5 mg
Cc1c(C)c2c(c(C)c1O)CCC(C)(C(=O)NN=C1C(=O)Nc3ccc(F)cc31)O2 (stereo not shown) | seizure protection | male CF-1 mice | intraperitoneal, 0.5 h, with: pentylenetetrazole 60 mg/kg subcutaneous | – | minimal effective dose | 300 mg/kg
RALRTK | ELISA or Luminex | peptide, mouse peritoneal macrophages, C57BL/6 mouse | optimal dose within 0.1 pM to 100 nM, 1 h pretreatment, 15 h stimulation, with: LPS 100 ng/mL + IFN-γ 20 ng/mL | baseline: LPS/IFN-γ stimulated control | inhibition of TNF-α release | 0%
COc1c(C)c(C)c2c(c1C)CCC(C)(C(=O)NN=C1C(=O)Nc3cc(Cl)ccc31)O2 (stereo not shown) | seizure protection | male CF-1 mice | intraperitoneal, 4 h, with: pentylenetetrazole 60 mg/kg subcutaneous | – | minimal effective dose | 100 mg/kg
GLFHDQAGPPAGYEF | ELISA or Luminex | peptide, mouse peritoneal macrophages, C57BL/6 mouse | optimal dose within 0.1 pM to 100 nM, 1 h pretreatment, 15 h stimulation, with: LPS 100 ng/mL + IFN-γ 20 ng/mL | baseline: LPS/IFN-γ stimulated control | inhibition of TNF-α release | 0%
CCCN(O)N=Nc1ccc(S(=O)(=O)Nc2nccs2)cc1 | paw oedema | rat, carrageenan oedema | oral, 100 mg/kg, 2 h after carrageenan | baseline: vehicle | inhibition | 35.1%
CC(C)NC(=O)[C@H]1CCC[C@H]1Nc1nc(Nc2ccc(C(=O)N(C)C3CCN(C)CC3)cc2)ncc1C(F)(F)F | immunohistochemistry, item: phospho-histone H3 | advanced solid tumour patients, skin biopsy epidermis | day 2 of cycle 1, dosing | – | effective dose | ≥ 43 mg
CC(C)C[C@H](NC(=O)[C@H](CO)NC(=O)[C@H](CCCNC(=N)N)NC(=O)[C@H](CC(=O)O)NC(=O)[C@H](CCC(=O)O)NC(=O)[C@H](C)NC(=O)[C@@H]1CCCN1C(=O)[C@H](C)NC(=O)[C@H](CCC(=O)O)NC(=O)[C@@H]1CCCN1C(=O)[C@@H]1CCCN1)C(N)=O | HPLC-EC | F344 rat, normal, substantia nigra | intranasal, 1000 µg, 5 days/week for 3 weeks | – | HVA level | 51 ± 4 ng/g
NC(=O)N1c2ccccc2C=Cc2ccccc21 | – | Scn1a+/- mice | oral in chow, dose not given, spontaneous seizures, subchronic | baseline: untreated | GTCS progressing to tonic hindlimb extension | decreased
CO[C@H]1/C=C\C=C(/C)C(=O)NC2=CC(=O)C(NCCN(C)C)=C(C[C@@H](C)C[C@H](OC)[C@H](O)[C@@H](C)/C=C(\C)[C@@H]1OC(N)=O)C2=O | western blot | mouse, SK-OV-3 xenograft, tumour | ip, 50 mg/kg, 3 doses every 8 h, unit not given | baseline: α-tubulin | HER2 protein level | 0.32 ± 0.06
insulin glulisine | – | obese type 2 diabetes patients | subcutaneous, 0.2 U/kg, before standard meal | – | peak plasma glucose | 170 mg/dL
COc1cc(CN(CCN)C(=O)c2cccs2)ccc1OCc1ccccc1.Cl | – | rat, lateral parabrachial nucleus | intravenous, 6 mg/kg, with: cold exposure 4 °C 2 h | – | decrease in c-Fos-positive neurons | 45%
Cc1ccc(N(O)N=Nc2ccc(S(=O)(=O)Nc3onc(C)c3C)cc2)cc1 | paw oedema | rat, carrageenan oedema | oral, 100 mg/kg, 2 h after carrageenan | baseline: vehicle | inhibition | 45.4%
COc1cc(CNC(=O)CCCC/C=C/C(C)C)ccc1O | – | male Sprague-Dawley rat, LAD occlusion-reperfusion | iv, 0.3 mg/kg, 5 min before reperfusion, 30 min occlusion, 2 h reperfusion | baseline: area at risk | infarct size | 45 ± 1%

Molecule | test | system | setting | scale | endpoint | result
insulin | PET imaging | CD IGS rat, ipsilateral lateral gastrocnemius | intravenous, 3.39-48.48 IU/kg, 20 to 60 min | – | 18F-FDG SUV slope | 0.0061 ± 0.0019
Cc1cc(C(=O)/C(=C\c2ccccc2C)c2ccccc2C)c(C(=O)N2CCCCC2)c(=O)[nH]1 | cell proliferation, MTT | 35404 melanoma brain metastasis, human patient-derived | 72 h, tested up to 10 µM | – | IC50 | > 10 µM
O=S(=O)(NCCNC/C=C/c1ccc(Br)cc1)c1cccc2cnccc12 | – | Sprague Dawley rats | 250 µM | baseline: own control | CSF secretion rate | 71 ± 5%
CCOC(=O)C=C1SC(NN=C2c3ccccc3-c3nc4cc(F)ccc4nc32)=NC1=O | – | mice with STZ-induced diabetes | oral, 25 mg/kg, 144 h, day 6 | – | blood glucose | 351 ± 80 mg/dL
CCCCCCCCCC(=O)N[C@@H](Cc1c[nH]c2ccccc12)C(=O)N[C@H](CC(N)=O)C(=O)N[C@@H](CC(=O)O)C(=O)N[C@@H]1C(=O)NCC(=O)N[C@@H](CCCN)C(=O)N[C@@H](CC(=O)O)C(=O)N[C@H](C)C(=O)N[C@@H](CC(=O)O)C(=O)NCC(=O)N[C@H](CO)C(=O)N[C@@H]([C@H](C)CC(=O)O)C(=O)N[C@@H](CC(=O)c2ccccc2N)C(=O)O[C@@H]1C | – | Japanese patients with SSTI | intravenous, 4 mg/kg once daily, 7 to 14 days, test-of-cure, MITT-MRSA | – | clinical success | 81.8%
Cc1ccc(-c2nn(-c3ccccc3)cc2C=NNC2=NC(=O)C(=C3c4ccccc4-c4nc5cc(F)ccc5nc43)S2)cc1 | – | mice with STZ-induced diabetes | oral, 25 mg/kg, 216 h, day 9 | – | blood glucose | 332 ± 79.1 mg/dL
Cc1c(C)c2c(c(C)c1O)CCC(C)(C(=O)NN=C1C(=O)Nc3cc(Cl)ccc31)O2 (stereo not shown) | seizure protection | male CF-1 mice | intraperitoneal, 0.5 h, with: pentylenetetrazole 60 mg/kg subcutaneous | – | minimal effective dose | 30 mg/kg
enoxaparin | – | human subjects, plasma | dose not given, with: dabigatran etexilate 220 mg | baseline: dabigatran etexilate alone | aPTT AUEC(0-48) increase | ~14%
CCN(c1nc(N)c(C(=O)NC(=N)N)nc1Cl)C(C)C | – | mice, MCAO focal ischemia | intracerebroventricular, 1 µL, 2 mM, 24 h, 30 min before 60 min MCAO | – | infarct volume | 29.4%
SIYNFEKL | flow cytometry, item: CD44hi CD8+ T cells | peptide, OT-I CD8+ T cells, mouse | dose not given, primed 5 days, restimulated 100 ng/mL OVA257, with: no TGF-β1 | – | IL-2+ TNF-α+ cells | 3.14%
insulin aspart | euglycaemic glucose clamp | elderly type 1 diabetes | subcutaneous, 0.2 U/kg | – | time to GIRmax | 146 min
Cc1c(C)c2c(c(C)c1OCc1ccccc1)CCC(C)(C(=O)NN=C1C(=O)Nc3ccc(F)cc31)O2 (stereo not shown) | seizure protection | male CF-1 mice | intraperitoneal, 4 h, with: maximal electroshock | – | minimal effective dose | 300 mg/kg
NNC1=NC(=O)C(=C2c3ccccc3-c3nc4cc(F)ccc4nc32)S1 | – | mice with STZ-induced diabetes | oral, 25 mg/kg, 144 h, day 6 | – | blood glucose | 382 ± 23.3 mg/dL
Cc1cccc(N(O)N=Nc2ccc(S(=O)(=O)Nc3onc(C)c3C)cc2)c1 | paw oedema | rat, carrageenan oedema | oral, 100 mg/kg, 4 h after carrageenan | baseline: vehicle | inhibition | 68.3%
FC(F)(F)c1ccc(CNc2ccc(Cc3c[nH]c4ncc(Cl)cc34)cn2)cn1 | – | mice, prostate bone cancer | oral, in chow, 30 mg/kg/day, from day 14, days 49, 56, 63 | baseline: vehicle | spontaneous flinches | decreased
Cc1c(C)c2c(c(C)c1O)CCC(C)(C(=O)NN=C1C(=O)Nc3ccccc31)O2 (stereo not shown) | seizure protection | male CF-1 mice | intraperitoneal, 0.5 h, with: maximal electroshock | – | minimal effective dose | > 300 mg/kg
NCCCC[C@@H]1NC(=O)[C@@H](Cc2c[nH]c3ccccc23)NC(=O)[C@H](c2ccccc2)NC(=O)[C@@H]2C[C@@H](OC(=O)NCCN)CN2C(=O)[C@H](Cc2ccccc2)NC(=O)[C@H](Cc2ccc(OCc3ccccc3)cc2)NC1=O | GHRH-stimulated GH secretion | healthy human volunteers | subcutaneous, 1200 µg, with: GHRH 1 µg/kg | baseline: pre-dose baseline | GH AUC(0-2h) change | -95.7%
CCOc1ccc(Cc2cc([C@]34OC[C@](CO)(O3)[C@@H](O)[C@H](O)[C@H]4O)ccc2Cl)cc1 | – | human, type 2 diabetes, mild renal impairment | dose not given, 24 h | baseline: normal renal function median | urinary glucose excretion | ~53%
CC(C)[C@H](NS(=O)(=O)c1ccc(-c2ccc(Br)cc2)cc1)C(=O)O | – | rat, isolated perfused stunned heart | dose not given, 20-25 min ischaemia, 30 min reperfusion | – | ventricular weight | 93.7 ± 1.3 mg
Polymyxin B | – | human whole blood | 125 ng/mL, 4 h, 37 °C, with: E. coli LPS 0.5 ng/mL | baseline: LPS without compound | IL-1β release | 24.9 ± 10.8%
Cc1c(C)c2c(c(C)c1OCc1ccccc1)CCC(C)(C(=O)NN=C1C(=O)Nc3ccccc31)O2 (stereo not shown) | seizure protection | male CF-1 mice | intraperitoneal, 4 h, with: maximal electroshock | – | minimal effective dose | > 300 mg/kg
CS(=O)(=O)N1CCc2c(-c3cnc(N)nc3)nc(N3CCOCC3)nc21 | – | human | 72 mg twice daily | – | time on treatment | 6 cycles
Cc1c(C)c2c(c(C)c1O)CCC(C)(C(=O)NN=C1C(=O)N(C)c3ccccc31)O2 (stereo not shown) | seizure protection | male CF-1 mice | intraperitoneal, 0.5 h, with: maximal electroshock | – | minimal effective dose | 30 mg/kg
Neuropeptide Y | perfusion pressure | cirrhotic rat, isolated perfused liver | 0.1 nM to 5 µM, with: methoxamine 100 µM | – | hepatic vascular resistance | increased

Excerpt of the above:
Molecule | test | system | setting | scale | endpoint | result
Cn1cnc2c(F)c(Nc3ccc(Br)cc3Cl)c(C(=O)NOCCO)cc21 | volumetric MRI | human | 30 mg | baseline: best response | tumour volume increase | 44%
Cc1cc2cc3ccccc3cc2c2ccccc12 | adrenal haemorrhage prevention | rat | oral, with: 7,12-DMBA 5 mg i.v. | – | minimal protective dose | 0.5 mg
Cc1ccc(S(=O)(=O)NC(=O)NN2CC3CCCC3C2)cc1 (stereo not shown) | – | mice with STZ-induced diabetes | oral, 25 mg/kg, 216 h, day 9 | – | blood glucose | 165 ± 4.1 mg/dL
Cc1cc(Nc2ncc(Cl)c(Nc3ccccc3S(=O)(=O)C(C)C)n2)c(OC(C)C)cc1C1CCNCC1 | immunohistochemistry | human, metastatic tissue | concentration not given | baseline: archival tissue | pH3 and cleaved caspase-3 | no effect
COc1ccc(-c2c(Nc3ccccn3)[nH]c3c(C4=CCCCC4)c(-c4ccccc4)nn3c2=O)cc1 | immunohistochemistry H-score, item: SDMA | human, tumour biopsy | concentration not given | baseline: baseline biopsy | fold increase | ~2 fold
Cc1c2ccccc2cc2ccc3ccccc3c12 | adrenal haemorrhage prevention | rat | oral, with: 7,12-DMBA 5 mg i.v. | – | minimal protective dose | 1 mg
Cc1noc(NS(=O)(=O)c2ccc(N=NN(O)c3ccccc3)cc2)c1C | paw oedema | rat, carrageenan oedema | oral, 100 mg/kg, 2 h after carrageenan | baseline: vehicle | inhibition | 39.7%
